Experimental data of several laboratories.
Numbered parts are unrelated; each lists some results of a single study.

Block 1
Target: RNA binding protein fox-1 homolog 2, RRM domain, GST-SBP tag (RBFOX2, Homo sapiens, UniProt O43251-10, residues 100-194)
Method: RNA Bind-n-Seq
Form: RNA
Medium: in vitro
Tested at: 365 nM
Notes: natural RNA segment, single round, ends assumed
Relative to: no-protein control
Reading: higher = stronger binding
Construct (chain): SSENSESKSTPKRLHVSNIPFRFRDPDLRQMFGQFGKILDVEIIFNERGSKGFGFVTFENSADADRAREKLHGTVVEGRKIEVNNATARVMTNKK
Strand	RBNS enrichment (R)
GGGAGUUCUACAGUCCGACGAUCAGAACAGAAGAAUCUGACAGGCACUAAUUGGAUACUGUGGCUUGUUUGGAUAGAAAUUCUGAAUGGAGUGGAGGAAAGGAGAAAUGCCCUCAUCACUGAGGAUCAUGAAAUGGAAUUCUCGGGUGCCAA	0.45
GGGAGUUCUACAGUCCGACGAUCGUUUUAAGUUUAGAUUUCACCGUGUCUUAGUGCUUCAUUCUAUUGGUUUAUUGGAACAUGUAAUAAAUAGGAGUAGUGAUGUAUUAAAACACAAGUAUUCAUUAAUGUUUUGGAAUUCUCGGGUGCCAA	1.18
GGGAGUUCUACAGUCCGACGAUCUCUGAAAUGCCCAUGGACUCUGCCUCCCAACCAUUCGUCUCUCACUCCUAGCAGAGCUGUCUGUGCAGACUGUUUCUUAGGAGGCACAGCAAGCUCCAGGGAACCCUCUGUGGAAUUCUCGGGUGCCAA	0.644
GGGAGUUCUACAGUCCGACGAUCCUGUUAGCCCAGUGAGUUCUCCACAGUUACUGUAUGUGAUCUUCAUGGGCAGCAAAUGGAAAGUCUUCCAAUCAGUACUCCAGGCCUUGAACACGUGCACACAUGAGUUCUGGAAUUCUCGGGUGCCAA	0.32
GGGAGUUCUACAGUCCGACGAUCAUCUAUAUUUUUUUAGGAAAACAGAAAUUGAAAAAUUUAUCCCAUUGGGGCAUUUAAAGCUACUCUUCUUUCUUCUUCCUCUCUUGACCACAUCCUAGACCCAGUUCCAUUGGAAUUCUCGGGUGCCAA	0.787
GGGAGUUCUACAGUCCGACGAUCCGGAGUUGGGGGUACCCGUUGCAGAGCCAGGGACAUGAUGCAGGCGAAGCUUGGGAUCUGGCCAAGUUGGACUUUGAUCCUUUGGGCAGAUGUCCCAUUGCUCCCUGGAGUGGAAUUCUCGGGUGCCAA	0.622
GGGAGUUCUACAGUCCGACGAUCCAGAGGAAGAAAAACUAAAGAGUCGUUUGUUCAGAGACCUGACCUUAUAAAGUUGGGGGAGCAGCUGGGUUUGUACCUAUAACCUCAGCCUUUGAGAGAGAUUGAGAAAGUGGAAUUCUCGGGUGCCAA	0.407
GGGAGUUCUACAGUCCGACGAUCGAUAACGACAAUUACCAAGGAAACUGUGCUGAGGAAGAGCAGUCUGGCUGGUGGUUUAACAGGUGUCACUCUGCAAACCUGAACGGUGUUUACUACCGUGGUUCCUACAGUGGAAUUCUCGGGUGCCAA	0.392

Block 2
Target: Histone acetyltransferase KAT6A, winged helix 2, GST fusion (KAT6A, Homo sapiens, UniProt Q92794, residues 85-181)
Method: protein binding microarray
Form: double-stranded DNA, one strand shown
Medium: in vitro
Tested at: not given
Notes: 8-mer, flanks averaged, mean of 2 arrays, mostly near background
Relative to: not given
Reading: higher = stronger binding
Construct (chain): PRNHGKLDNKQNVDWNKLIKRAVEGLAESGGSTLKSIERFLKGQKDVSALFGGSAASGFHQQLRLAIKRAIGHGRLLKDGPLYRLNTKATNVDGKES
Strand	E-score
CCGAAAGA	0.0133
CGTTTTCA	0.104
AACCACCG	-0.136
GTTGATTA	0.188
CGGGTCAG	0.198
CGTCCGGC	0.196
AAGTGTGC	-0.0146
GTCCGGGA	0.17
GACGTATC	-0.133
AGATGGTG	-0.0583
ACAAGTCT	-0.233
CCACGGCA	0.0757
AATAAAAA	0.0359
AGGACGGG	-0.145
CTCGGCAA	0.037
CCGGTCAA	0.132
CCCTCGCC	0.0805
AAAGCCCT	-0.108
GCTCATAA	0.0171
AATCTCTG	-0.0612
ACAAGTCA	-0.131
AAGACGGA	0.01
CTATCCAA	-0.208
AGATCGAT	-0.133
CCGCAATC	0.164

Block 3
Target: RING finger protein unkempt homolog, zinc fingers 1-6, GST-SBP tag (UNK, Homo sapiens, UniProt Q9C0B0, residues 30-357)
Method: RNA Bind-n-Seq
Form: RNA
Medium: in vitro
Tested at: not given
Notes: RNA with constant flanks, human and mouse sites, ends assumed
Relative to: input RNA pool
Reading: higher = stronger binding
Residues (chain): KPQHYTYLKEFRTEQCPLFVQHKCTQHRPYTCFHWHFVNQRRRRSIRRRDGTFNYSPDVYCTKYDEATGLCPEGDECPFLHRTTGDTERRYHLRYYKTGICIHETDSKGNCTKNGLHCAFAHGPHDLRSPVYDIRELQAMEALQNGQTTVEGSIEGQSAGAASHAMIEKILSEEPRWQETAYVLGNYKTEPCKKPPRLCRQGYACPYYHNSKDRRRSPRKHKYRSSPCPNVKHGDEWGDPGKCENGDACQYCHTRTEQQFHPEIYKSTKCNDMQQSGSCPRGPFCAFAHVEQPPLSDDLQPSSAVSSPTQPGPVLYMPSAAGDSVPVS
Strand	bound/input enrichment
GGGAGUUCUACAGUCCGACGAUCGAGAGGACGCUGGGACUCAGCAGCCCAUGUGACAACAGGGUUCCAGCACAGCAGCUGUAUUUUACCACCCCUUCCAACCAGAAUGUAUACCAGGUGGACUCUCUGCAAUCUACGUGAAAGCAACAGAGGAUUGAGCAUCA	0.248 ratio
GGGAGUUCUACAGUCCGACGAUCGGCUCUACGGCGAUUAAGAAGAAACAGCAAGAUGUGCUUUGUUUCUUAGAAGCCAACAAAAUAGGAUUUGAAGAAAAAGAUAUUGCAGCUAAUGAAGAGAAUCGGAAGUGGAUGAGAGAACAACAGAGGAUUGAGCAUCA	2.1 ratio
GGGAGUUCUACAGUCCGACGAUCAAUUUAAUUAAAAUUCAGGCUAUAGCUGUUUGUAUGGAAAAUGGCAACUUUAAAGAAGCAGAAGAAGUCUUUGAAAGAAUAUUUGGUGAUCCAAAUUCUCAUAUGCCUUUCAAAAGCAAACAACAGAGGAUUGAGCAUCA	0.871 ratio
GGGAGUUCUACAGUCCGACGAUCAACCACUUACUACCAGGCCUUUUUCUGUGUCCACUGGAGAGCUUGAGCUCACACUCAAAGAUCAGAGGACCUACAGAGAGGGCUCUUUGGUUUGAGGACCAUGGCUUACCUUUCCUGCCUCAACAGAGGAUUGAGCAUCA	0.0893 ratio
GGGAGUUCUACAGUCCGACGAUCAUGUCAGGCACCGUGUUGGCAUCACACAACAAACUGUGGAUCAGUUUUUUUUUUUUUUUUUUUUUUUUGGAGUUGAAAGAUGUGAGACAGUAUUCAGAAUAAUGAAGAUAAUAAUGAUGACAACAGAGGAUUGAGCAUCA	1.35 ratio
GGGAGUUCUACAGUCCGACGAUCUGUUGCUGCCUUUAUGGACAUGGGUACCAAUUGCUUUUGUAAUAUGGUAAAAAUGUGAGCUAGCACUUCUGCGUUCCUUUUGAUUUUUUUUUUUUAACAUGUAUUCAGAUUGAGAAAUAUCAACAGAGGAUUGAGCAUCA	0.624 ratio
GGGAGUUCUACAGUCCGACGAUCAUAUUGAAACAGUCUGCAGAUUUUUUAUCAAUAAACAAAUUGCUAAAGUACUCAUGGUUUUUCUUUGAAAUAAUUGCAAAGUCAAUGGCCACAUACUUGUUGGAAGAGAAUAAGAUUAAGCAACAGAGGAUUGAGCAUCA	0.251 ratio
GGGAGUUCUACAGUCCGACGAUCGCCAGCCACUCGGAGCUAAUCCACAACCUCCGCAAGAAUGGAAUCAUCAAGACAGAUAAAGUAUUUGAAGUGAUGCUGGCUACAGACCGUUCCCACUAUGCAAAAUCUAACCCUUACAUGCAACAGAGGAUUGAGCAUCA	0.124 ratio

Block 4
Target: Fragile X messenger ribonucleoprotein 1, C-terminal low-complexity region (Fmr1, Mus musculus, UniProt P35922)
Method: RNA Bind-n-Seq
Form: RNA
Medium: in vitro
Tested at: 200 nM
Notes: whole 134-nt RNA, ends assumed
Together with: 150 mM LiCl
Relative to: input library
Reading: higher = stronger binding
Library: 7-deaza-guanosine replaces G
Strand	log2 enrichment
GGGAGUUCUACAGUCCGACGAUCACCAUGCAGGUGGGCAUCUAUGGGAAGUGGGGCAAGGGGGGGAUAGGGAGGGGGGUAACACUUUGGGAACAGGUGGUCCCAGGUCGUUUCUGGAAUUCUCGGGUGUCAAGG	1.49
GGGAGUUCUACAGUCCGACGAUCCAAGUCCUGUGCUACACAUCGUAUGUACCGAAUCGGAAAGGAAAGGUUUUUUUGGAAAGUAUUAUGUUACGCCGUUCGGAUCUGCACUUCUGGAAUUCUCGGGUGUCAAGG	-1.4
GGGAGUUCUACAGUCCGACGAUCUGGGAGGUGGAUUUUGUUUAUUUUUUUAGCUCAUUUCCAGGGGUGGGAAUUUUUUUUUAAUAUGUGUCAUGAAUAAAGUCGUUUUUGAAAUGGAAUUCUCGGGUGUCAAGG	0.156
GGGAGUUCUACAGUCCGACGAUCCCUCAAGUCCUGUGCUACACAUCGUAUGUACCGAAUCGGAGGGAGGGGAGGGGAAAGUAUUAUGUUACGCCGUUCGGAUCUGCACUUCCAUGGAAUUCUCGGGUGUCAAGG	-1.14
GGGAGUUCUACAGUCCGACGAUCCCUCAAGUCCUGUGCUACACAUCGUAUGUACCGAAUCGGAGGGGAGGAGGGGAAAGUAUUAUGUUACGCCGUUCGGAUCUGCACUUCCAGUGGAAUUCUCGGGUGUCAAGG	-0.418
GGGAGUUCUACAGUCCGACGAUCGUCCUGUGCUACACAUCGUAUGUACCGAAUCAAAUUUUUAAACCCAAACCCCCCCAAAAAAGUAUUAUGUUACGCCGUUCGGAUCUGCACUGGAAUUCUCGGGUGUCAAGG	1.19
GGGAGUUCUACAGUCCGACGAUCCCUGUGCUACACAUCGUAUGUACCGAAUCGGCCCCCCGGGGCCCCCCGGGCCCCCCGGGGAAAGUAUUAUGUUACGCCGUUCGGAUCUGCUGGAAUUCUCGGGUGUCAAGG	-3.14
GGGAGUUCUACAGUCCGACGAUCCACAGACAACACGCACCCACACAGACACAGAGGGAAGGGGUUGGGAUGGGGACAGGGUGCACAGAAGGGCGGGGUAGGACCCCAGCCCCUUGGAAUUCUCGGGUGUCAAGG	0.178

Block 5
Target: Sal-like protein 4, full length isoform A (SALL4, Homo sapiens, UniProt Q9UJQ4, residues 1-1053)
Sequence of UniProt Q9UJQ4 (whole entry, looked up): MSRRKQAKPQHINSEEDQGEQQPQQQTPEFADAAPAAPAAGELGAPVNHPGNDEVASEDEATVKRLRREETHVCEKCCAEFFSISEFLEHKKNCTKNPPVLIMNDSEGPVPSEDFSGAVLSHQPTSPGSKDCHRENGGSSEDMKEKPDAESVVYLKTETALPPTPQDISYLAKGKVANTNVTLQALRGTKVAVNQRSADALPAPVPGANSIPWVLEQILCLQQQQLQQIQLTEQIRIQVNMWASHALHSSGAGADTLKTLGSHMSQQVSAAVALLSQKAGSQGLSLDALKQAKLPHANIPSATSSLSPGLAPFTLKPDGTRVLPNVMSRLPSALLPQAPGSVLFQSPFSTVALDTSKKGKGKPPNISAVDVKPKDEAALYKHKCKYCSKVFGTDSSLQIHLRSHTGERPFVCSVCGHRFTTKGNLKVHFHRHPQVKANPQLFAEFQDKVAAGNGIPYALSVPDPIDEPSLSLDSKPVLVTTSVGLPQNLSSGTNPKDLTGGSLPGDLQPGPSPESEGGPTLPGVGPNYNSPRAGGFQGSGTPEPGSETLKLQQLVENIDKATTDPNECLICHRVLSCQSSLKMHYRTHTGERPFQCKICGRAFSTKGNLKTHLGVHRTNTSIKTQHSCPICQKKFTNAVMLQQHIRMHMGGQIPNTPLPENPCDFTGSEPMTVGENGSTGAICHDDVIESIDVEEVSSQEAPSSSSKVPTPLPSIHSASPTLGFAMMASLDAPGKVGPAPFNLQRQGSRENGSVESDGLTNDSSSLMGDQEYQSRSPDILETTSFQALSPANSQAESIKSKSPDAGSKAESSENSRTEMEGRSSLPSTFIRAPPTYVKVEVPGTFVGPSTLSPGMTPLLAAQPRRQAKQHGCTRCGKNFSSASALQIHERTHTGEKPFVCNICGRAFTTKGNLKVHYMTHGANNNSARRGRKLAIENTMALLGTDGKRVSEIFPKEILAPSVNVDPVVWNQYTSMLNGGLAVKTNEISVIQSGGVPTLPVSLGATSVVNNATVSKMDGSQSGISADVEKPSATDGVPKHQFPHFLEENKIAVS
Method: universal PBM
Form: double-stranded DNA, one strand shown
Medium: in vitro
Tested at: 600 nM
Notes: 8-mer, flanks averaged, mean of replicates
Reading: higher = stronger binding
Strand	E-score
CTCGGATC	-0.175
AACTATGA	0.307
GAACTTGA	0.119
ACGTGATA	0.128
GCGGGAAC	-0.353
AATCTAAC	0.152
AGATACAG	0.156
GCACAACA	0.143
CTTTCTCC	-0.182
ATTGGGGA	-0.152
AATTTTGA	0.303
CTGCGTGA	-0.154
ACCTTCTA	0.0678
CACGCTGG	-0.269
GAGACCGC	-0.365
CATGAGTC	0.11
GTAAAAAC	0.204
AGACGAGA	-0.0582
GCCCTATA	0.159
CCCCTTGC	-0.354
